Assay results pooled from the literature.
± gives the spread as reported.
Target: ATP-dependent translocase ABCB1 (ABCB1, Homo sapiens, UniProt P08183)
UniProt P08183, sequence (whole entry, looked up): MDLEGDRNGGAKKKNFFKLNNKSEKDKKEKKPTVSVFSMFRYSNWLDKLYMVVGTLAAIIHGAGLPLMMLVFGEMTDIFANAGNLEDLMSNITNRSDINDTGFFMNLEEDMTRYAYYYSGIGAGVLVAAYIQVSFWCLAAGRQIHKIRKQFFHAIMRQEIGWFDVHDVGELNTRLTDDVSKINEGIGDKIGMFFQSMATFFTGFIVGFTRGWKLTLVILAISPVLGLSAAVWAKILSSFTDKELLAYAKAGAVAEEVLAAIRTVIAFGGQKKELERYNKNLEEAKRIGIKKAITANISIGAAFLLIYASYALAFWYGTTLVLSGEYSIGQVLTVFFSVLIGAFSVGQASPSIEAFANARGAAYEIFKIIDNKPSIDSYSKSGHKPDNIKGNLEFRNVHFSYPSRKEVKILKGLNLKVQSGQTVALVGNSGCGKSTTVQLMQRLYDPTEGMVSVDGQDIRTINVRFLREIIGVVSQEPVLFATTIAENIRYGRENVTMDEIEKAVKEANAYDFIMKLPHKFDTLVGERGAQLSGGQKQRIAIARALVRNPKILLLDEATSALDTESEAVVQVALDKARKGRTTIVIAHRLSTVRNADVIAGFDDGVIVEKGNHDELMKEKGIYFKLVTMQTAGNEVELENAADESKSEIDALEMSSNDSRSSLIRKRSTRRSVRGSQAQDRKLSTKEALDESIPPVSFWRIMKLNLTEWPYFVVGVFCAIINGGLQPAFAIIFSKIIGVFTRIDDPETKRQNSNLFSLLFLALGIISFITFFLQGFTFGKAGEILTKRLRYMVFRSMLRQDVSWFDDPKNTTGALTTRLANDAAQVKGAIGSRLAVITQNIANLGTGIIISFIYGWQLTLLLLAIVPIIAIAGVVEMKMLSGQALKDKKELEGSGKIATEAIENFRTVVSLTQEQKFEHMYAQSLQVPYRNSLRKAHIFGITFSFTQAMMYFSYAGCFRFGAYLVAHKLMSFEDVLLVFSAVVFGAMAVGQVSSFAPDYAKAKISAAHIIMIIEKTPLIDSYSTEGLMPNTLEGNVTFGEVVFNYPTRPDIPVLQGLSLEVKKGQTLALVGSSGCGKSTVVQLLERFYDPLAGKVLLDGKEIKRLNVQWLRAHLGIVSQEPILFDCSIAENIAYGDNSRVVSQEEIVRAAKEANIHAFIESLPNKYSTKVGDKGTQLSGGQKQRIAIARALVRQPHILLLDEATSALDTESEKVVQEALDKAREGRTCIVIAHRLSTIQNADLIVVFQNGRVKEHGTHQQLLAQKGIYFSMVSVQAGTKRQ

| Compound | assay | system | conditions | scale | measurement | value |
| --- | --- | --- | --- | --- | --- | --- |
| COc1cc(CCOC(C)=O)cc(-c2cc(CCOC(C)=O)cc(OC)c2O)c1O | rhodamine 123 efflux |  | 50 µM | baseline: GF120918 0.5 µM | inhibition | -0.4 ± 1.3% |
| CC(=O)OC1O[C@@H]2O[C@@]3(C)CC[C@H]4[C@H](C)CCC([C@H]1C)[C@@]24OO3 (stereo partly shown) | calcein-AM efflux, inhibitor, flow cytometry | CEM/ADR5000 | 30 min, together with: calcein-AM 1 µM | baseline: untreated | maximal effect | 916% |
| CC(C)CCN(c1nc(C#N)nc(NC2COC2)n1)C(C)c1ccc(F)cc1 (stereo not shown) |  | MDCK-MDR1 |  |  | Papp | 7.92 ×10⁻⁶ cm/s |
| CC(=O)OCCc1ccc(O)c(-c2cc(CCOC(C)=O)ccc2O)c1 | rhodamine 123 efflux |  | 10 µM | baseline: GF120918 0.5 µM | inhibition | 0 ± 1.2% |
| C[C@H]1C(NCCS)O[C@@H]2O[C@@]3(C)CC[C@H]4[C@H](C)CCC1[C@@]24OO3 (stereo partly shown) | transport inhibition, inhibitor, flow cytometry | CEM/ADR5000 leukaemia | together with: calcein-AM 1 µM |  | EC50 | 27.2 ± 4.69 µM |
| Cc1cccc(C)c1OCC(=O)N[C@@H](Cc1ccccc1)[C@H](C[C@H](Cc1ccccc1)NC(=O)[C@H](C(C)C)N1CCCNC1=O)OC(=O)[C@H](CC(C)C)NC(=O)[C@@H](N)Cc1cnc[nH]1 |  | MDCK-MDR1, Caco-2 |  |  | Papp A→B | 6.72 ×10⁻⁶ cm/s |
| CC(C)C(=O)Cc1c(OCC(O)C(C)(C)O)ccc2ccc(=O)oc12 (stereo not shown) | inhibitor, rhodamine 123 retention | COLO 320 and COLO 205 | 20 µM, together with: rhodamine 123 5.2 µM | baseline: COLO 320 over COLO 205, higher = stronger inhibition | fluorescence activity ratio | 1.85 |
| N#Cc1nc(N2CCOCC2)nc(N(Cc2ccc(F)cc2)CC2CCCNC2)n1 (stereo not shown) |  | MDCKII-MDR1 | 1 µM, 4 h |  | Papp B-A | 447 ×10⁻⁶ cm/s |
| CC(C)C(=O)OC1O[C@@H]2O[C@@]3(C)CC[C@H]4[C@H](C)CCC([C@H]1C)[C@@]24OO3 (stereo partly shown) | calcein-AM efflux, inhibitor, flow cytometry | CEM/ADR5000 | 30 min, together with: calcein-AM 1 µM | baseline: untreated | maximal effect | 1240 ± 78.2% |
| CC(=O)OCCc1cc(O)c(O)c(-c2cc(CCOC(C)=O)cc(O)c2O)c1 | rhodamine 123 efflux |  | 50 µM | baseline: GF120918 0.5 µM | inhibition | -0.3 ± 1.6% |
| CC(C)=CCc1c(OCC2OC2(C)C)ccc2ccc(=O)oc12 (stereo not shown) | inhibitor, rhodamine 123 retention | COLO 320 and COLO 205 | 20 µM, together with: rhodamine 123 5.2 µM | baseline: COLO 320 over COLO 205, higher = stronger inhibition | fluorescence activity ratio | 4.86 |
| CCCC(CCC)C(=O)OC1O[C@@H]2O[C@@]3(C)CC[C@H]4[C@H](C)CCC([C@H]1C)[C@@]24OO3 (stereo partly shown) | calcein-AM efflux, inhibitor, flow cytometry | CEM/ADR5000 | 30 min, together with: calcein-AM 1 µM | baseline: untreated | maximal effect | 2220 ± 94.7% |
| COc1cc(CCOC(C)=O)cc(-c2cc(CCOC(C)=O)cc(O)c2O)c1O | rhodamine 123 efflux |  | 50 µM | baseline: GF120918 0.5 µM | inhibition | -0.4 ± 1.6% |
| COc1cc(/C=C/C(=O)c2ccc3ccccc3c2)ccc1OCc1ccccc1 | mitoxantrone efflux, flow cytometry |  | 10 µM |  | inhibition | no inhibition |
| C[C@H]1C(OC(=O)C(C)(C)C)O[C@@H]2O[C@@]3(C)CC[C@H]4[C@H](C)CCC1[C@@]24OO3 (stereo partly shown) | calcein-AM efflux, inhibitor, flow cytometry | CEM/ADR5000 | 30 min, together with: calcein-AM 1 µM | baseline: untreated | maximal effect | 1780 ± 292% |
| CC1(C)OC(=O)C[C@H](O)[C@]2(C)[C@H]3CC[C@@]4(C)[C@H](c5ccoc5)OC(=O)[C@H]5O[C@]54[C@]3(C)C(=O)C[C@@H]12 | inhibitor, rhodamine 123 retention | COLO 320 and COLO 205 | 2 µM, together with: rhodamine 123 5.2 µM | baseline: COLO 320 over COLO 205, higher = stronger inhibition | fluorescence activity ratio | 1.01 |
| CCCC(=O)OC1O[C@@H]2O[C@@]3(C)CC[C@H]4[C@H](C)CCC([C@H]1C)[C@@]24OO3 (stereo partly shown) | calcein-AM efflux, inhibitor, flow cytometry | CEM/ADR5000 | 30 min, together with: calcein-AM 1 µM | baseline: untreated | maximal effect | 1390 ± 394% |
| OCCc1ccc(O)c(-c2cc(CCO)ccc2O)c1 | rhodamine 123 efflux |  | 10 µM | baseline: GF120918 0.5 µM | inhibition | -0.3 ± 2% |
| Cn1ccc2cc(-n3c(=O)[nH]c4sc5c(c4c3=O)CCCC5)ccc21 |  | MDCK-MDR1 | 5 µM |  | Papp B→A | 66.2 ×10⁻⁶ cm/s |

Excerpt of the above:
| Compound | assay | system | conditions | scale | measurement | value |
| --- | --- | --- | --- | --- | --- | --- |
| CC(C)C(=O)OC1O[C@@H]2O[C@@]3(C)CC[C@H]4[C@H](C)CCC([C@H]1C)[C@@]24OO3 (stereo partly shown) | calcein-AM efflux, inhibitor, flow cytometry | CEM/ADR5000 | 30 min, together with: calcein-AM 1 µM | baseline: untreated | maximal effect | 1240 ± 78.2% |
| CC(=O)OCCc1cc(O)c(O)c(-c2cc(CCOC(C)=O)cc(O)c2O)c1 | rhodamine 123 efflux |  | 50 µM | baseline: GF120918 0.5 µM | inhibition | -0.3 ± 1.6% |
| CCCC(=O)OC1O[C@@H]2O[C@@]3(C)CC[C@H]4[C@H](C)CCC([C@H]1C)[C@@]24OO3 (stereo partly shown) | calcein-AM efflux, inhibitor, flow cytometry | CEM/ADR5000 | 30 min, together with: calcein-AM 1 µM | baseline: untreated | maximal effect | 1390 ± 394% |
